Literature values that unrelated publications cite.
Compare with care: the assays were run in different laboratories. ± marks the error that the study gave.
Chain of UniProt P10635 (whole entry, looked up): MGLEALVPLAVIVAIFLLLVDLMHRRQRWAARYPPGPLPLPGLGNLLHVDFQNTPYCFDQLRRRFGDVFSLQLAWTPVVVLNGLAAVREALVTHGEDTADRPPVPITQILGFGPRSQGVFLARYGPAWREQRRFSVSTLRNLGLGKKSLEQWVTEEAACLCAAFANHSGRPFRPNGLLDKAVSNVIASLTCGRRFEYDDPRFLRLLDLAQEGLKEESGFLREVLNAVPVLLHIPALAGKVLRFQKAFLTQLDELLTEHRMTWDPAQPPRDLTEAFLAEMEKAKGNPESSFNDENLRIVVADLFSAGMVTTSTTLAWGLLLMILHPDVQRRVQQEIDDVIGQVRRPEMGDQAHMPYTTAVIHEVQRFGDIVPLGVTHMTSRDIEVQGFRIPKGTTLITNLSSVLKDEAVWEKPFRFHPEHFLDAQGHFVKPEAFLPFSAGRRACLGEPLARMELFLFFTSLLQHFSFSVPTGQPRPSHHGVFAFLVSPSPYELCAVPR
Chain of UniProt P05177 (whole entry, looked up): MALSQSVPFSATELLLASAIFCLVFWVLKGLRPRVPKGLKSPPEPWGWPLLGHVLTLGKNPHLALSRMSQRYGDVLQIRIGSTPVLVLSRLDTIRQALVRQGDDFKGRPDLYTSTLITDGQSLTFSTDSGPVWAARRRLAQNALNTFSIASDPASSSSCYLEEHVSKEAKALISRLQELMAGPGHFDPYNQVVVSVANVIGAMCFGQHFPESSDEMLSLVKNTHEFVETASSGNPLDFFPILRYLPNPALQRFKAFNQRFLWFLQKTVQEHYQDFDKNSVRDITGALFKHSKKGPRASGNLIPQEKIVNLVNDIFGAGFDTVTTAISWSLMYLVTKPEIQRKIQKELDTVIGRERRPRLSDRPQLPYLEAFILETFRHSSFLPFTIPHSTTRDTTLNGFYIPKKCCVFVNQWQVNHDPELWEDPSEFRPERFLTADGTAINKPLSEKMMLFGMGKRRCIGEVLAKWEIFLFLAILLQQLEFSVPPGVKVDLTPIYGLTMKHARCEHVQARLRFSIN

O=C1c2ccccc2-c2c1c1ccc([N+](=O)[O-])cc1c(=O)n2C[C@H](O)[C@@H](O)[C@H](O)[C@H](O)CO  GI50 (OVCAR-3; cell growth; ovarian cancer panel): 4.26 µM
CC(=O)O[C@H]1C2=C(C(=O)C(O)=C(C(C)C)C2=O)[C@@]2(C)CCCC(C)(C)[C@@H]2[C@@H]1O  GI50 (NCI-H460): ≤ 5 µM
COCCOCCOCCOCCC(=O)NCc1cc(CNC(=O)CCOCCOCCOCCOC)cc(-c2cc3cc4nc(c(OC)c5[nH]c(cc6nc(cc2[nH]3)CC6(C)C)cc5-c2cc(CNC(=O)CCOCCOCCOCCOC)cc(CNC(=O)CCOCCOCCOCCOC)c2)CC4(C)C)c1  Qy emission maximum (DMF; room temperature): 735 nm
C=C[C@@H]1C[C@]1(NC(=O)[C@@H]1C[C@@H](Oc2cc(-c3ccccc3)nc3cc(OC)ccc23)CN1C(=O)[C@@H](NC(=O)OC(C)(C)C)C(C)(C)C)C(=O)NS(=O)(=O)C1CC1  half-life (rat; intravenous, 5 mg/kg): 1 h
Cc1ccccc1-c1cc(N2CCNCC2)ncc1N(C)C(=O)C(C)(C)c1cc(C(F)(F)F)cc(C(F)(F)F)c1  Cmax (healthy volunteers, plasma; oral, dose not given, netupitant-palonosetron, fed): 0.0468 µg/mL
CCC(=O)OC1=C(C(C)C)C(=O)C2=C(C1=O)[C@@]1(C)CCCC(C)(C)[C@@H]1[C@H](OC(=O)CC)[C@H]2OC(C)=O  GI50 (MOLT-3): 10 to 30 µM
Cc1cc(N2CC[C@](C#N)(C3(C)CC3)C2=O)cc(C(=O)NCc2cc(F)cc(-c3cnn(C)c3)c2)n1  CC50 (MDA-MB-231): > 2 µM
CCCC(=O)O[C@@H]1[C@@H](OC(C)=O)C2=C(C(=O)C(O)=C(C(C)C)C2=O)[C@@]2(C)CCCC(C)(C)[C@H]12  GI50 (MCF7; cell growth): 5 to 10 µM
CC(=O)N1CCC(NC(=O)NC23CC4CC(C)(CC(C2)c2ccccc24)C3)CC1  inhibition (Cytochrome P450 1A2 (CYP1A2, Homo sapiens, UniProt P05177); 10 µM): 9 ± 1%
CN1CCN(c2cc(-c3ccccc3CO)c(N(C)C(=O)C(C)(C)c3cc(C(F)(F)F)cc(C(F)(F)F)c3)cn2)CC1  exposure ratio (systemic circulation; baseline: metabolite over netupitant): 33%
CC(=O)O[C@H]1C2=C(C(=O)C(OC(=O)c3ccc(Cl)cc3)=C(C(C)C)C2=O)[C@@]2(C)CCCC(C)(C)[C@@H]2[C@@H]1OC(=O)c1ccc(Cl)cc1  GI50 (HL-60; cell growth): 5 to 10 µM
O=C1c2ccccc2-c2c1c1ccc([N+](=O)[O-])cc1c(=O)n2C[C@H](O)CO  GI50 (HCT-116; cell growth; colon cancer): 0.025 µM
CC(C)(C)C1=CC(=NNC(=O)c2ccncc2)C=C(C(C)(C)C)C1=O  mutagenicity (Salmonella typhimurium; Ames test; TA100; concentration not given): negative
COc1ccc(Nc2nccc(-c3c[nH]nc3-c3cccnc3)n2)cc1  inhibition (Cytochrome P450 2D6 (CYP2D6, Homo sapiens, UniProt P10635); 10 µM): 4%
CCC(=O)O[C@@H]1[C@@H](OC(C)=O)C2=C(C(=O)C(O)=C(C(C)C)C2=O)[C@@]2(C)CCCC(C)(C)[C@H]12  GI50 (HL-60; cell growth): 10 to 30 µM
CCCCc1oc2ccccc2c1C(=O)c1cc(I)c(OCCNCC)c(I)c1  KI (human CYP2C9; mechanism-based inactivation; with: diclofenac 4'-hydroxylation): ~100 µM
CC(=O)O[C@H]1C2=C(C(=O)C(OC(=O)c3ccc(C)cc3)=C(C(C)C)C2=O)[C@@]2(C)CCCC(C)(C)[C@@H]2[C@@H]1O  GI50 (MOLT-3): ≤ 5 µM
Cc1ccccc1-c1cc(N2CC[N+](C)([O-])CC2)ncc1N(C)C(=O)C(C)(C)c1cc(C(F)(F)F)cc(C(F)(F)F)c1  half-life (healthy volunteers, plasma; oral, 450 mg, single dose, netupitant alone): 67.2 h

Repeated from above:
COc1ccc(Nc2nccc(-c3c[nH]nc3-c3cccnc3)n2)cc1  inhibition (Cytochrome P450 2D6 (CYP2D6, Homo sapiens, UniProt P10635); 10 µM): 4%
CCC(=O)O[C@@H]1[C@@H](OC(C)=O)C2=C(C(=O)C(O)=C(C(C)C)C2=O)[C@@]2(C)CCCC(C)(C)[C@H]12  GI50 (HL-60; cell growth): 10 to 30 µM
CCCCc1oc2ccccc2c1C(=O)c1cc(I)c(OCCNCC)c(I)c1  KI (human CYP2C9; mechanism-based inactivation; with: diclofenac 4'-hydroxylation): ~100 µM
